# Results pooled from the literature.
# Numbered parts are unrelated; each lists some results of a single study. ± gives the spread as reported.
# UniProt Q99250, sequence (whole entry, looked up): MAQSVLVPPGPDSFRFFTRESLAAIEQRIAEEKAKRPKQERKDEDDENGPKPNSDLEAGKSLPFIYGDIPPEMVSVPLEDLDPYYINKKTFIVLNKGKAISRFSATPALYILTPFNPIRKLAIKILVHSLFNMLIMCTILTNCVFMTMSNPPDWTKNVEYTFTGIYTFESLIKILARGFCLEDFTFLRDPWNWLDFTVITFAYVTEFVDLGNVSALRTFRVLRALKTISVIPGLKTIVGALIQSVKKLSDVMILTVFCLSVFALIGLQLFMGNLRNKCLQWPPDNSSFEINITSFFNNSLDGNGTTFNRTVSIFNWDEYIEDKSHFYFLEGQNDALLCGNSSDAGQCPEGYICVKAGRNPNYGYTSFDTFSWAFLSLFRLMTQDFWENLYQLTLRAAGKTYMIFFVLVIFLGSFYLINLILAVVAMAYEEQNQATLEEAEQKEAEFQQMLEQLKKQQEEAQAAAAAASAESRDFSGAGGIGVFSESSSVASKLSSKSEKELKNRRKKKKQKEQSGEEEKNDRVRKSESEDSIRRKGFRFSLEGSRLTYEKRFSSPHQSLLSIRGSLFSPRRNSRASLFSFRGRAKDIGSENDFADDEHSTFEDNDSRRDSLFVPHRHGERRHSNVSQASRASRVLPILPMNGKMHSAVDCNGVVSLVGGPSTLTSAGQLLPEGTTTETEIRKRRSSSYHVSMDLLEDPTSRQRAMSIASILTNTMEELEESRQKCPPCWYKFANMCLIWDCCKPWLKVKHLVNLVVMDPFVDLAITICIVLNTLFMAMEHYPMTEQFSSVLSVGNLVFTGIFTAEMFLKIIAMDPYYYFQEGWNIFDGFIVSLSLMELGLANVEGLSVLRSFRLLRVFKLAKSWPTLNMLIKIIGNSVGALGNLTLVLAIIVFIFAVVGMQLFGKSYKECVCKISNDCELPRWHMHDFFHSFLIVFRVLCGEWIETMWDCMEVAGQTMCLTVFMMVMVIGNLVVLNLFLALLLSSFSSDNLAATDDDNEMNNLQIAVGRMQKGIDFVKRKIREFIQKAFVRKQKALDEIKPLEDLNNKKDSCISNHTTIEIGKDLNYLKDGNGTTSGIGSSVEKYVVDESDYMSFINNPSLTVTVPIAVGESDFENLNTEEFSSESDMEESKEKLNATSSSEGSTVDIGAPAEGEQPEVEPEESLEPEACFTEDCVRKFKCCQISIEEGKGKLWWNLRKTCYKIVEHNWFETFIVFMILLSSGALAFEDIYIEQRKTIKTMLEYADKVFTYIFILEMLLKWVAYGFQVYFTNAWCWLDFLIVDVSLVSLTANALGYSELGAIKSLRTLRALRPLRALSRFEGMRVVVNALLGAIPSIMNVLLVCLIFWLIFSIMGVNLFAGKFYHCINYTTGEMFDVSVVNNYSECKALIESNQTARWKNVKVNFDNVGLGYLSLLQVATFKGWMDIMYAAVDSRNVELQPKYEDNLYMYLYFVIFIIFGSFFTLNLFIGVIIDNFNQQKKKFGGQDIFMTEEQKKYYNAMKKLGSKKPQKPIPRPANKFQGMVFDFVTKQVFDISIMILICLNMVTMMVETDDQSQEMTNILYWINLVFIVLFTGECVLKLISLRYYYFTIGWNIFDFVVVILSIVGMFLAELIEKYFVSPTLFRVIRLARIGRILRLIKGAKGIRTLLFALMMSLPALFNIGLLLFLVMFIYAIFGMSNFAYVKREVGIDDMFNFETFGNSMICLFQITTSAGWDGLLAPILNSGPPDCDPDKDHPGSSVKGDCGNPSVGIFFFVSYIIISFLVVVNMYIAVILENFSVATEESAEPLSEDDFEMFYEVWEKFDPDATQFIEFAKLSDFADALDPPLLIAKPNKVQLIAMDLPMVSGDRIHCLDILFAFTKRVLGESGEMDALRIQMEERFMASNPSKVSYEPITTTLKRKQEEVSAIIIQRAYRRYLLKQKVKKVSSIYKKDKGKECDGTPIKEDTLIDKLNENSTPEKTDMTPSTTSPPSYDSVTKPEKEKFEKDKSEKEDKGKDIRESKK

# Series 1 — cell line: human erythrocytes, washed; time: 1 h; temperature: 37 °C; notes: 2% v/v RBC suspension
SMILES,HD50 [µmol/L]
CC[C@H](C)[C@H](NC(=O)CNC(=O)[C@H](C)NC(=O)[C@H](CCC(=O)O)NC(=O)[C@@H]1CCCN1C(=O)CNC(=O)[C@H](C)NC(=O)[C@H](CCC(=O)O)NC(=O)[C@H](C)NC(=O)[C@H](CC(=O)O)NC(=O)[C@H](C)NC(=O)[C@H](CCC(=O)O)NC(=O)[C@H](C)NC(=O)[C@H](CCC(=O)O)NC(=O)[C@@H]1CCCN1C(=O)[C@@H](N)CCC(=O)O)C(=O)NCC(=O)N[C@@H](C)C(=O)N[C@H](C(=O)N[C@@H](CC(C)C)C(=O)N[C@@H](CCCCN)C(=O)N[C@H](C(=O)N[C@@H](CC(C)C)C(=O)N[C@H](C(=O)N[C@H](C(=O)NCC(=O)N[C@@H](CC(C)C)C(=O)N1CCC[C@H]1C(=O)N[C@@H](C)C(=O)N[C@@H](CC(C)C)C(=O)N[C@H](C(=O)N[C@@H](CO)C(=O)N[C@@H](Cc1c[nH]c2ccccc12)C(=O)N[C@H](C(=O)N[C@@H](CCCCN)C(=O)N[C@@H](CCCNC(=N)N)C(=O)N[C@@H](CCCCN)C(=O)N[C@@H](CCCNC(=N)N)C(=O)N[C@@H](CCC(N)=O)C(=O)N[C@@H](CCC(N)=O)C(N)=O)[C@@H](C)CC)[C@@H](C)CC)[C@@H](C)O)[C@@H](C)O)C(C)C)C(C)C,56.9 ± 3.1
CC[C@H](C)[C@H](NC(=O)CNC(=O)[C@H](C)NC(=O)[C@H](CCC(=O)O)NC(=O)[C@@H]1CCCN1)C(=O)NCC(=O)N[C@@H](C)C(=O)N[C@H](C(=O)N[C@@H](CC(C)C)C(=O)N[C@@H](CCCCN)C(=O)N[C@H](C(=O)N[C@@H](CC(C)C)C(=O)N[C@H](C(=O)N[C@H](C(=O)NCC(=O)N[C@@H](CC(C)C)C(=O)N1CCC[C@H]1C(=O)N[C@@H](C)C(=O)N[C@@H](CC(C)C)C(=O)N[C@H](C(=O)N[C@@H](CO)C(=O)N[C@@H](Cc1c[nH]c2ccccc12)C(=O)N[C@H](C(=O)N[C@@H](CCCCN)C(=O)N[C@@H](CCCNC(=N)N)C(=O)N[C@@H](CCCCN)C(=O)N[C@@H](CCCNC(=N)N)C(=O)N[C@@H](CCC(N)=O)C(=O)N[C@@H](CCC(N)=O)C(N)=O)[C@@H](C)CC)[C@@H](C)CC)[C@@H](C)O)[C@@H](C)O)C(C)C)C(C)C,1.8 ± 0.1
CC[C@H](C)[C@H](NC(=O)CNC(=O)[C@H](C)NC(=O)[C@@H]1CCCN1C(=O)CNC(=O)[C@H](C)NC(=O)[C@H](CCC(=O)O)NC(=O)[C@@H]1CCCN1C(=O)[C@H](CC(=O)O)NC(=O)[C@H](C)NC(=O)[C@H](CCC(=O)O)NC(=O)[C@H](C)NC(=O)[C@H](CC(=O)O)NC(=O)[C@H](C)NC(=O)[C@H](CCC(=O)O)NC(=O)[C@H](C)NC(=O)[C@H](CCC(=O)O)NC(=O)[C@@H]1CCCN1C(=O)[C@@H](N)CCC(=O)O)C(=O)NCC(=O)N[C@@H](C)C(=O)N[C@H](C(=O)N[C@@H](CC(C)C)C(=O)N[C@@H](CCCCN)C(=O)N[C@H](C(=O)N[C@@H](CC(C)C)C(=O)N[C@H](C(=O)N[C@H](C(=O)NCC(=O)N[C@@H](CC(C)C)C(=O)N1CCC[C@H]1C(=O)N[C@@H](C)C(=O)N[C@@H](CC(C)C)C(=O)N[C@H](C(=O)N[C@@H](CO)C(=O)N[C@@H](Cc1c[nH]c2ccccc12)C(=O)N[C@H](C(=O)N[C@@H](CCCCN)C(=O)N[C@@H](CCCNC(=N)N)C(=O)N[C@@H](CCCCN)C(=O)N[C@@H](CCCNC(=N)N)C(=O)N[C@@H](CCC(N)=O)C(=O)N[C@@H](CCC(N)=O)C(N)=O)[C@@H](C)CC)[C@@H](C)CC)[C@@H](C)O)[C@@H](C)O)C(C)C)C(C)C,60 ± 3.7

# Series 2 — effect on: binding; method: competitive radioligand binding; time: 2 d; with: radiolabelled reference peptide
# Target: HLA class I histocompatibility antigen, A alpha chain, allele A*02:01 (Homo sapiens, UniProt P04439)
Structure (SMILES),Kd [nM]
CC[C@H](C)[C@H](NC(=O)CN)C(=O)N[C@@H](Cc1ccccc1)C(=O)N[C@@H](CCC(=O)O)C(=O)N[C@@H](CC(=O)O)C(=O)N[C@@H](CCCNC(=N)N)C(=O)N[C@@H](C)C(=O)N1CCC[C@H]1C(=O)N[C@H](C(=O)O)C(C)C,> 500
CSCC[C@H](NC(=O)[C@@H](N)[C@@H](C)O)C(=O)N[C@@H](Cc1ccc(O)cc1)C(=O)N[C@@H](Cc1ccc(O)cc1)C(=O)N[C@@H](CCCCN)C(=O)N[C@@H](CC(=O)O)C(=O)N[C@H](C(=O)N[C@H](C(=O)N[C@H](C(=O)O)C(C)C)[C@@H](C)O)C(C)C,< 25
CC[C@H](C)[C@H](NC(=O)[C@H](CC(C)C)NC(=O)[C@H](Cc1ccccc1)NC(=O)CNC(=O)CNC(=O)[C@H](CC(N)=O)NC(=O)[C@H](C)NC(=O)[C@H](CC(C)C)NC(=O)[C@@H](N)Cc1ccc(O)cc1)C(=O)O,< 25

# Single results of other studies
SMILES,target or system,assay,system,conditions,endpoint,value
CO[P@](=O)(Oc1ccc([N+](=O)[O-])cc1)OC(C)C,"had (Sphingobium sp. TCM1, UniProt A0A077JBW9)","p-nitrophenyl substrate hydrolysis, substrate",,,Km,2300 ± 900 µM
CC[C@H](C)[C@H](NC(=O)[C@H](C)NC(=O)[C@H](CCC(N)=O)NC(=O)[C@@H](NC(=O)[C@@H](NC(=O)[C@@H]1CCCN1C(=O)[C@@H]1CCCN1C(=O)[C@@H](NC(=O)[C@H](CCSC)NC(=O)[C@H](CC(C)C)NC(=O)[C@H](CC(C)C)NC(=O)[C@H](CO)NC(=O)CNC(=O)[C@H](CC(C)C)NC(=O)[C@@H](NC(=O)[C@H](CC(C)C)NC(=O)[C@H](CC(C)C)NC(=O)[C@@H]1CCCN1C(=O)[C@H](CC(C)C)NC(=O)[C@@H](N)Cc1ccccc1)[C@@H](C)CC)[C@@H](C)O)C(C)C)[C@@H](C)CC)C(=O)N[C@@H](Cc1c[nH]cn1)C(=O)N[C@@H](CC(=O)O)C(=O)N[C@@H](C)C(=O)N[C@@H](CCC(N)=O)C(=O)N[C@@H](CCCNC(=N)N)C(N)=O,"SCN2A (Homo sapiens, UniProt Q99250)","sodium current, agonist, whole-cell patch clamp",HEK293 stably expressing NaV1.2,"0.1% DMSO, hold -100 mV",EC50,410 ± 33 nM
CC(C)C[C@@H]1NC(=O)[C@H](CCCNC(=N)N)NC(=O)[C@@H]2CCCN2C(=O)[C@@H]2CSSC[C@H](NC(=O)CNC(=O)[C@@H]3CCCN3C(=O)[C@H](CCCCN)NC(=O)[C@H](CC(=O)O)NC(=O)[C@@H](NC(=O)CN)C(C)C)C(=O)N[C@@H](CCCNC(=N)N)C(=O)N[C@@H](Cc3ccc(O)cc3)C(=O)N[C@@H](CC(C)C)C(=O)N[C@@H](Cc3ccccc3)C(=O)NCC(=O)NCC(=O)N[C@H]3CSSC[C@H](NC(=O)CNC1=O)C(=O)N[C@@H](CCCCN)C(=O)NCC(=O)N[C@@H](CCCCN)C(=O)NCC(=O)N[C@@H](Cc1c[nH]cn1)C(=O)N[C@@H](CC(=O)O)C(=O)N[C@@H](Cc1ccc(O)cc1)C(=O)N[C@H](C(=O)N[C@@H](C)C(=O)N[C@@H](Cc1c[nH]c4ccccc14)C(=O)N[C@@H](CC(=O)O)C(=O)NCC(=O)N[C@H](C(=O)N[C@@H](Cc1ccccc1)C(=O)N[C@@H](CO)C(=O)N[C@@H](CC(=O)O)C(=O)O)[C@@H](C)O)CSSC[C@H](NC(=O)[C@H](CC(=O)O)NC(=O)[C@H](CC(=O)O)NC(=O)[C@H](CC(=O)O)NC(=O)[C@H](CO)NC(=O)[C@H](CCCCN)NC3=O)C(=O)N2,,,mouse small DRG neurons,"1 µM, 1 s current ramp",action potential number,7.1 ± 1.2

# Repeated from above (single results of other studies):
SMILES,target or system,assay,system,conditions,endpoint,value
CO[P@](=O)(Oc1ccc([N+](=O)[O-])cc1)OC(C)C,"had (Sphingobium sp. TCM1, UniProt A0A077JBW9)","p-nitrophenyl substrate hydrolysis, substrate",,,Km,2300 ± 900 µM
